# Experimental data of several laboratories.
# Each line is one published result; not all experiments were run side by side. Numbers after ± are the reported error.
SMILES,cell line,test,system,setting,scale,measurement,result
CC1(C(=O)O)CCCC2(C)C1CCC1(C)c3cocc3CCC12 (stereo not drawn),VCaP,"inhibitor, qRT-PCR, refers to: PSA, FKBP5, TMPRSS2",,"10 µM, 16 h, androgen-induced transcripts, with: R1881 1 nM",,mRNA level,no effect
F[P-](F)(F)(F)(F)F.F[P-](F)(F)(F)(F)F.[Ru+2].c1ccc(-c2ccccn2)nc1.c1ccc(-c2ccccn2)nc1.c1csc(-c2cc3cccnc3c3ncccc23)c1,HL-60,cell viability,,red light 625 nm,reference: dark EC50 over light EC50,phototherapeutic index,1
CC[C@@]1(O)C(=O)OCc2c1cc1n(c2=O)Cc2cc3cc(OC(=O)CCCC(=O)NCC(=O)N[C@@H](Cc4ccccc4)C(=O)N[C@@H](Cc4ccccc4)C(=O)N[C@@H](Cc4ccc(OP(=O)(O)O)cc4)C(=O)NCCSSCCNC(=O)CCC(=O)N[C@@H](CCC(=O)O)C(=O)N[C@@H](CCCNC(=N)N)C(=O)NCC(=O)N[C@@H](CC(=O)O)C(=O)O)ccc3nc2-1,HepG2,confocal microscopy,,"100 µM, 2 h, with: chlorpromazine 30 µM",,cellular uptake,inhibited
CC[C@H](C)[C@H](NC(=O)[C@H](CC(C)C)NC(=O)[C@@H](NC(=O)[C@@H](NC(=O)[C@H](CCSC)NC(C)=O)[C@@H](C)CC)[C@@H](C)CC)C(=O)N[C@H](C(=O)N[C@@H](CO)C(=O)N[C@@H](Cc1ccccc1)C(=O)N1CCC[C@H]1C(=O)N[C@@H](CCCCN)C(=O)N[C@@H](Cc1c[nH]cn1)C(=O)N[C@@H](CCCCN)C(=O)N[C@@H](CC(=O)O)C(=O)N[C@@H](Cc1c[nH]c2ccccc12)C(=O)N[C@@H](CCCCN)C(=O)N[C@H](C(=O)N[C@H](C(=O)N[C@@H](CC(C)C)C(=O)N[C@H](C(=O)N[C@@H](CCCCN)C(N)=O)C(C)C)[C@@H](C)CC)C(C)C)[C@@H](C)CC,"mouse BMDMs, Irf5-/- and wild type",,,"dose not given, 24 h, with: LPS",,TGF-β production,no effect
CC(C)CC(O)(CC(C)C)c1cn(C(=O)N2CCCC2)nn1,mouse T-cells,"SILAC proteomics, refers to: TMSB4X",,"1 nM, 6 h, unit not given",reference: DMSO,protein level,1.19 ± 0.08
N=C(N)NCCC[C@H](NC(=O)[C@H](CCCNC(=N)N)NC(=O)[C@@H]1CCCN1C(=O)[C@H](CCCNC(=N)N)NC(=O)[C@H](CCCNC(=N)N)NC(=O)[C@H](CCCNC(=N)N)NC(=O)[C@H](Cc1c[nH]c2ccccc12)NC(=O)[C@H](CCCNC(=N)N)NC(=O)[C@H](CCCNC(=N)N)NC(=O)[C@H](CCCNC(=N)N)NC(=O)[C@H](CCCNC(=N)N)NC(=O)[C@H](CCCNC(=N)N)NC(=O)[C@H](Cc1c[nH]c2ccccc12)NC(=O)[C@H](CCCNC(=N)N)NC(=O)[C@H](CCCNC(=N)N)NC(=O)[C@H](Cc1ccc(O)cc1)NC(=O)[C@H](CCCNC(=N)N)NC(=O)[C@H](CCCNC(=N)N)NC(=O)[C@H](CCCNC(=N)N)NC(=O)[C@@H](N)Cc1c[nH]c2ccccc12)C(N)=O,HBMEC,,PBS,"5.2 µM, 30 min, 37 °C",,zeta potential,-5.6 ± 0.4 mV
CC[C@H]1OC(=O)[C@H](C(C)C)NC(=O)[C@H](C)OC(=O)[C@@H](C(C)C)NC(=O)[C@@H](C(C)C)OC(=O)[C@H](C(C)C)NC(=O)[C@H](C)OC(=O)[C@@H](C(C)C)NC(=O)[C@@H](C(C)C)OC(=O)[C@H](C(C)C)NC(=O)[C@H](C)OC(=O)[C@@H](C(C)C)NC1=O,U-87 MG,"Western blot, refers to: ATP synthase beta",,"5 and 10 µM, 48 h",,protein level,no effect
CC/C=C\C/C=C\C/C=C\C/C=C\C/C=C\C/C=C\CCC(=O)Nc1ccn(C2OC(CO)C(O)C2(F)F)c(=O)n1 (stereo not drawn),NCI/ADR-RES,NCI-60 screen,,,,CC50,46.9 µM
CC(=O)N[C@@H](Cc1c[nH]c2ccccc12)C(=O)N[C@@H](CCC(=O)O)C(=O)N[C@@H](C)C(=O)N[C@@H](CC(=O)O)C(=O)COC(=O)c1c(C)cccc1C,THP-1 FKBP-caspase-4,LDH release,,"10 µM, with: B/B 50 nM",,pyroptosis,decreased
CC(=O)N1CCCC[C@H]1C(=O)NC(C)(C)C(=O)N1CCCC[C@H]1C(=O)NC(C)(C)C(=O)NC(C)(C)C(=O)N[C@@H](CC(C)C)C(=O)NC[C@@H](C)C(=O)NCC(=O)NC(C)(C)C(=O)NC(C)(C)C(=O)N1CCCC[C@H]1C(=O)NC(C)(C)C(=O)NCC(=O)N[C@@H](CC(C)C)C(=O)NC(C)(C)C(=O)N[C@@H](CC(C)C)C[N+]1=C2CCCN2CCC1,MCF-10A,"cell growth or viability, SRB",,48 h,,GI50,0.323 µM
C[C@H]1C(OCCCCCC[P+](c2ccccc2)(c2ccccc2)c2ccccc2)O[C@@H]2O[C@@]3(C)CCC4[C@H](C)CCC1[C@]42OO3 (stereo partly drawn),T24,MTT,,72 h,reference: HUVEC IC50 over T24 IC50,selectivity index,2.07
Cc1cc(Nc2cc(CN3CCN(C)CC3)cc(NC(=O)c3cccc(Nc4ccnc5ccccc45)c3)c2)nc(N)n1,"NCI-H1299, NCI-H596, NCI-H1975",,,concentration not given,,p53 and p21 levels,no effect
